Assay results gathered from unrelated publications.
Protocols differ between the studies behind these lines. “And” joins repeats or separate records; there may be more than shown. ± marks the error that the study gave.

SMILES | cell line | test | system | setting | how to read | measurement | value
CCn1cc(-c2cc(Cn3ccoc3=N)cc3c2CCN([C@@H](C)c2cc(OC)ccn2)C3=O)c(C(F)(F)F)n1 | DU-4475 | cell growth, inhibitor |  | 120 h |  | EC50 | 7.04 µM
O=c1c2ccccc2[se]n1-c1ccccc1 | differentiated LUHMES MT1G::HiBiT-G2 neurons | cell viability | 3D neurospheres | 24 h |  | AC50 | 1.8 µM
c1ccc2c(CCNc3ccc(Nc4ccncc4)cc3)c[nH]c2c1 | BT-16 | cell viability, MTT |  | 10 µM, 72 h |  | inhibition | 95.5%
CC(C)(C)c1nc(-c2cccc(NS(=O)(=O)c3c(F)cccc3F)c2F)c(-c2ccnc(N)n2)s1 | C13 | annexin V/PI flow cytometry |  | concentration not given, 48 h | reference: control subtracted | early apoptotic cells | 14.5 ± 3%
C=CCn1c(=O)c2cnc(Nc3ccc(N4CCN(C)CC4)cc3)nc2n1-c1ccc2c(n1)[C@@](O)(CC)CC2 | MDA-MB-231 | flow cytometry, measured: pHH3+γH2Ax+ |  | concentration not given |  | G2/M cells in subpopulation | 19.7%
COc1cc(-c2nncn2C)ccc1Nc1ncc2ccnc(NCC(C)(C)C)c2n1 | CAL-51 | cell growth |  | 72 h |  | GI50 | 0.012 µM
CNCCC=C1c2ccccc2CCc2ccccc21 | HepG2-C8 | ARE reporter gene |  | concentration not given, 24 h |  | activity | active
Nc1ncnc2c1ncn2[C@@H]1O[C@H](CO)[C@@H](O)[C@H]1O | unstimulated human T cells |  |  | 1 µM, 72 h | higher = more viable cells | viability | 84.8 a.u. and 77.4 a.u. and 83.1 a.u.
Cc1nc(NC(=O)N2CCC[C@H]2C(N)=O)sc1-c1ccnc(C(C)(C)C(F)(F)F)c1 | CAL-51 | cell growth, CellTiter-Glo |  | 120 h |  | Hill coefficient GR curve | 1.19
O=C(O[C@@H]1COC(=O)c2cc(O)c(O)c(O)c2-c2c(cc(O)c(O)c2O)C(=O)O[C@H]1[C@@H]1OC(=O)c2cc(O)c(O)c(O)c2-c2c(O)c(O)c(O)c3c2C(=O)O[C@H]1[C@@H]3O)c1cc(O)c(O)c(O)c1 | SIM-A9 microglia | nitric oxide production, Griess |  | 13.3 to 213.3 µM, with: LPS |  | inhibition | > 50%
CSc1cc(Oc2ccnc3[nH]c(=O)cnc23)ccc1NC(=O)Nc1cc(C(C)(C)C)nn1-c1ccccc1 | patient-derived cell line clone B | RPPA, measured: phosphorylated HER3 | human | 1 µM, 4 h | reference: DMSO | phospho ratio | 0.73
COc1cc([C@@H]2c3cc4c(cc3[C@@H](O[C@@H]3O[C@@H]5CO[C@@H](C)O[C@H]5[C@H](O)[C@H]3O)[C@H]3COC(=O)[C@H]23)OCO4)cc(OC)c1O | HepG2 spheroids | flow cytometry, measured: Ki67 |  | 1.7 µM, 24 h | reference: solvent control | cell proliferation reduction | 29.3%
Cn1cc(-c2ccc(-c3cncc(Cl)c3N3CCC4(CCNC4=O)CC3)cc2)cn1 | COLO 205 | gene expression, microarray, measured: HOXC6 mRNA |  | concentration not given, 2 h | reference: untreated cells | log2 fold change | 3.29
COc1cnc2cccc(N3CCc4c(cc(Cn5ccnc5C)cc4-c4cn(C)nc4C(F)(F)F)C3=O)c2c1 | C32 | cell growth, inhibitor |  | 120 h |  | EC50 | 26.6 µM
CC[C@H]1CN2CCc3cc(OC)c(OC)cc3[C@@H]2C[C@@H]1C[C@H]1NCCc2cc(OC)c(OC)cc21 | BT-16 | cell viability, MTT |  | 10 µM, 72 h |  | inhibition | 92.9%
Cn1cc(Nc2nccc(-c3ccc4c(c3)CN(C3COC3)CC[C@H]4NC(=O)c3cn(C(C)(C)C)nn3)n2)cn1 | mouse splenic B cells | measured: LPS-stimulated MAPK signalling |  | 30 mg/kg, IgD-activated in vivo | reference: vehicle, direction not given | pathway activation z-score | 2.14
Cl.Cl.OCCOCCN1CCN(Cc2cccc(Oc3ccccc3)c2)CC1 | BT-16 | cell viability, MTT |  | 10 µM, 72 h |  | inhibition | 89.7%
C=CC1=C(C)c2cc3[n-]c(cc4nc(cc5[n-]c(cc1n2)c(C)c5C=C)C(C)=C4CCC(=O)O)c(CCC(=O)O)c3C.[Zn+2] | SH-SY5Y | RNA-seq, measured: CXCL12 mRNA |  | 5 µM, 5 h | reference: untreated cells | fold change | 1.58
COc1cc(/C=C/C(=O)N2CCC=CC2=O)cc(OC)c1OC | BT-16 | cell viability, MTT |  | 10 µM, 72 h |  | inhibition | 92%
O=C(/C=C/C=C/C=C/C1CCCCC1)NC1=C[C@@](O)(/C=C/C=C/C=C/C(=O)NC2=C(O)CCC2=O)[C@@H]2O[C@@H]2C1=O | TE-15 | cell growth, CellTiter-Glo |  | 78 h |  | GI50 | 12.5 µM

A few entries again:
SMILES | cell line | test | system | setting | how to read | measurement | value
Cn1cc(Nc2nccc(-c3ccc4c(c3)CN(C3COC3)CC[C@H]4NC(=O)c3cn(C(C)(C)C)nn3)n2)cn1 | mouse splenic B cells | measured: LPS-stimulated MAPK signalling |  | 30 mg/kg, IgD-activated in vivo | reference: vehicle, direction not given | pathway activation z-score | 2.14
O=C(/C=C/C=C/C=C/C1CCCCC1)NC1=C[C@@](O)(/C=C/C=C/C=C/C(=O)NC2=C(O)CCC2=O)[C@@H]2O[C@@H]2C1=O | TE-15 | cell growth, CellTiter-Glo |  | 78 h |  | GI50 | 12.5 µM
